Published values pooled from the literature.
Parts stem from different laboratories: compare values within a part only. Changes are numbered by the printed parent chain.

Set 1 — method: DHFR PCA, deep sequencing; medium: yeast; together with: (+)-ABA 710 µM; baseline: wild-type fitted maximum; direction: higher = stronger binding
Target: ABI1, truncated, D143A, DHFR fusion (Arabidopsis thaliana)
Notes: methotrexate growth selection, single substitutions
Parent: PYL1, truncated, DHFR fusion (Arabidopsis thaliana); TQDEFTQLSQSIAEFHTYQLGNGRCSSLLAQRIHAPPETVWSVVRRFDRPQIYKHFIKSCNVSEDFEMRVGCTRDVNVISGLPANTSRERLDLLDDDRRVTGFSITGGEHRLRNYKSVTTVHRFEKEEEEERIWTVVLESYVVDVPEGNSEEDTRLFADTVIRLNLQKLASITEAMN; partner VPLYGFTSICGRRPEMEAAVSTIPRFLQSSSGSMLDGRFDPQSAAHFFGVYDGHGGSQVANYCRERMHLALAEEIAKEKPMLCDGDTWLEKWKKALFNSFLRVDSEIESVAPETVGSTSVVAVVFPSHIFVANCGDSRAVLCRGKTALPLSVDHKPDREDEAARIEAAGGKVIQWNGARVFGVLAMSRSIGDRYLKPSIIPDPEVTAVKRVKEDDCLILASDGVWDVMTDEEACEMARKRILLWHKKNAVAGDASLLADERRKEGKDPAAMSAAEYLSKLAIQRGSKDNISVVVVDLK
| Change | relative binding score |
| --- | --- |
| E64P | 97.9% |
| F157A | 35.9% |
| Q7K | 107% |
| L164K | 95.7% |
| C25Q | 77.9% |
| A158P | 15.8% |
| V100E | 18.6% |
| E131C | 108% |
| M68C | 98.6% |
| A84D | 31% |
| I162K | 48.1% |
| R99L | 114% |
| L93V | 110% |

Set 2 — method: RNA Bind-n-Seq; form: RNA; medium: in vitro; concentration: not given; baseline: input RNA pool; direction: higher = stronger binding
Target: RING finger protein unkempt homolog, zinc fingers 1-6, GST-SBP tag (UNK, Homo sapiens, UniProt Q9C0B0, residues 30-357)
Sequence of UniProt Q9C0B0 (30-357, looked up): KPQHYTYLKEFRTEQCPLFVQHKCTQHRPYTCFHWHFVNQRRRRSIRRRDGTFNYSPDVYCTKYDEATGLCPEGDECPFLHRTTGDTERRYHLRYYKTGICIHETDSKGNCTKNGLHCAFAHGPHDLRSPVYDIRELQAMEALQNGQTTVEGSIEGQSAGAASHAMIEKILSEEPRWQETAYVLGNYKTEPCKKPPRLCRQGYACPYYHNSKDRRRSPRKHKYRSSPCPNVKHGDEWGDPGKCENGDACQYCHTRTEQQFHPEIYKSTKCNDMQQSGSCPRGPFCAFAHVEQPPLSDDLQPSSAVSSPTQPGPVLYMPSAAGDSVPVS
Notes: RNA with constant flanks, human-mouse chimeric sites, ends assumed
All sequences stand within: GGGAGUUCUACAGUCCGACGAUC … CAACAGAGGAUUGAGCAUCA
| Oligonucleotide | bound/input enrichment [ratio] |
| --- | --- |
| UUAAUCCCCUUUACUGCUCCCCCACUUCUCAUGGUAAUAACAAAGUCUUAUAUUCCCGUCCUAGCUUUUACUCAGAUGGCUUAUGGAGCCGGUUUCCUAGCUUUCUUGGGAGGGAUCAGA | 0.9 |
| GGUGGGGUGGUCAUUGCGCCAAUUGAGGCUGAUUUUCAUGAGUCGCCUUCAAAACUCUCGUGUAGGGUUGACAAUGUGGGGGGGUGGGGGAUCCAGCUUAUUCUUUUAUUUUCAAGUCCA | 0.695 |
| GAUCCACAGUGGUCUGAGGAGCAACUCAUUGCUGCAAAAUUCUGUUUUGCUGGCCUUGUUAUAGGGCAGACUGAAGUGGAUAUCAUGAGUCAUGCUACACAAGCUAUUUUUGAAAUUCUG | 0.155 |
| UCCCAAAUUAUAAGGCAAGAAGGAGCCUUGAGACAAACACUCCACACACAGGGAAGGCGAUAACAUUGUACAUUGGUUUACAUUUUUUCCCCCUGUGUUUUCUAGGGGAGGUCAUAGUGC | 0.486 |
| UUUGUUUGUAACUUAUCUGUAAAAGGUGUUUCUCCCUACUGUCAAAAAAAUAUGCAUGUAUAGUAAUUAGGACUUCAUUCCUCCAUGUUUUCUUCCCUUAUCUUACUGUCAUUGUCCUUA | 1.03 |
| ACUCUUGACUCUUUCCAUCCUCUUCCUUUUCCUCUUGAUCUUCAAGGCCAUGAAUCCCAAAAUAACAGUCUUAGUGGCUAGCACCCAAACAGAGGUGGAAUAAAUCCACCCCAGUGUCUC | 0.629 |

Set 3 — method: RNA Bind-n-Seq; form: RNA; medium: in vitro; concentration: 365 nM; baseline: no-protein control; direction: higher = stronger binding
Target: RNA binding protein fox-1 homolog 2, RRM domain, GST-SBP tag (RBFOX2, Homo sapiens, UniProt O43251-10, residues 100-194)
Notes: natural RNA segment, single round, ends assumed
All sequences stand within: GGGAGUUCUACAGUCCGACGAUC … UGGAAUUCUCGGGUGCCAA
Residues (chain): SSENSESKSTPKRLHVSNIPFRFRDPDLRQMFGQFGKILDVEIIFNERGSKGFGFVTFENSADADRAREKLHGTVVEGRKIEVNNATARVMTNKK
| Oligonucleotide | RBNS enrichment (R) |
| --- | --- |
| ACAAAGGAGCCCAGGGAACUAUGUCCCCAGUAGGUUUAACCCAACCAAACACCAGAGGCUGUUAAUUGUGGGUGGUGCUGUCAGUGUUCCUGACGGCUAUGUGUGUAUUU | 0.353 |
| ACUGAGGAAAAUGGUGUUUUCCUCAAGAAGACUACUGGAACUGGAUGACCUCAGAAUGAACUGGAUUGUGGUGUUCACAAGAAAAUCUUAGUUUGUGAUGAUUACAUUGC | 0.373 |
| ACCACCCUGCCUCGUUUCCACCAAGCAUUCCAGUAGCCCCCAUGAAGGUCCCCCAACUCAGUUUUUUGCUUCUGCCAGGGAGCCUAAGUACCCACCCCGUCCACCUCCCC | 0.948 |
| AUCAUGACAGGAAUGAACCCAAACUCAGAACAAUAAAAUCAAUUCUGUGCUCCCCACGCGGGGCUUGAUCCUCGUGUGUGUGUCUGAGAGCUCCAACGGAGCAAGCAAGA | 0.385 |
| CAUCAGCACCUAGACGUACCGCACGGGAAGGAGGAGCAGAUCUGCUGACCUCAGGGCCUGACAGUGUGGGACAGGCUCUUCUUUCCCAAAAUUAGGGAGCUCUUGACAGA | 0.638 |
| CUUCUCUGUCCUUAGUUGUGAGCUUCUCCAUGCUGUGCCAAUGGCUAGCCUUUUCUACACCCUCUUUUGAGUGUAGUUUGAUAUUUUGUAAUCAAAAGCUCAUUUCACAA | 0.464 |
| CCCUGAGCCAGGUGCCACCACUGUAAGGAAAUGCCUUCAGAAAUUCACUGGUUCCUUCAAAGCGCUCAAGCCUCUGUGUCCUCCUUUGUCUCUUUGCUUUCCAGCCUCGC | 0.539 |
| UAAUGCAGGUGGUAAACCUAAUUCCAUAAGCAUGGCCUGCCCGAGCCAGAAGGAAGAAGAGCUUGCUCCCUGGCCUGAGGAAGUGCCUCGUAGGUAGUCAUGGAAGUCAC | 1.01 |
| UGGGACAUUGAAAUCCUGUGAGAGAAUCACAAAGGCACCUCCACCCACUCACGUGCUGUGUGCAUGAGAAGGAGGCCGCUGUGUUCACACUACUGCACCGCACCGCACCC | 2.54 |
| UAGCCCAAGAACAGAAAGAACCUUGCUGGGGUUGGAGGUUUCACUUGCACAUCAUGGAGGGUUUAGUGCUUAUCUAAUUUGUGCCUCACUGGACUUGUCCAAUUAAUGAA | 0.404 |
| AUACCCUACUUUUUCUGUACCUAAAUUUUCUUAAUAAAAUUUAGUAUAGCACUACAUUCUUUUUUAAGUGAUGUAAACUUUAGUUUCUUUAGCCCCUUCAUUUUGAAUAU | 1.5 |
| AGUGCUGGACUUGGCCAUGGGUAGUCUGCAGCUCAAUUUAUAGAACAGUCCAAAGAGACUUUGCAAAACAUGAUAGGCAGGGACCUUUUCCUCUGUGUUUCAAUACCUAU | 0.57 |

Set 4 — method: competition protein-binding microarray; form: double-stranded DNA, one strand shown; medium: in vitro; concentration: 2 µM; together with: Pho4 competitor, 0.05 µM; direction: higher = stronger binding; all sequences stand within: … GTCTTGATTCGCTTGACGCTGCTG
Target: Centromere-binding protein 1, full length, His-tagged (CBF1, Saccharomyces cerevisiae, UniProt P17106, residues 1-351)
Sequence of UniProt P17106 (whole entry, looked up): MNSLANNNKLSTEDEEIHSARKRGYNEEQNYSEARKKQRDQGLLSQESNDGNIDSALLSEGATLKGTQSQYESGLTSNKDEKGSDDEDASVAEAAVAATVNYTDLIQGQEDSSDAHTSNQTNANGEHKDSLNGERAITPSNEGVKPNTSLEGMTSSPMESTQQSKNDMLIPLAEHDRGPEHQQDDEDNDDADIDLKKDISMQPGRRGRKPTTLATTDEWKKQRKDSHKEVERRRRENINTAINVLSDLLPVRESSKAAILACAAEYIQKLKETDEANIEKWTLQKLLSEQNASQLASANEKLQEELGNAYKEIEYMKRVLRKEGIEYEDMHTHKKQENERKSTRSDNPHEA
Notes: whole 60-bp probe, lowest competitor level
| Oligonucleotide | fluorescence intensity |
| --- | --- |
| AAAGTAGTATTCCGTCACGTGATGGTGATCCAATTA | 11500 a.u. |
| CATACCCAACCTTTTCACGTGAGGTAAGATATTTGT | 1220 a.u. |
| AAAGCGGTAATTTGCGCAGTGGGTGCAGATATCTAT | 65.9 a.u. |
| TTCATTGATCGAGAGCGCGTGGAACAAATTCTAGAA | 95.5 a.u. |
| ATTAAATAGAAATATCACATGGCGATCCACTGAATG | 551 a.u. |
| AAAGCGGTAATTTGTGTGGTGGGTGCAGATATCTAT | 81.2 a.u. |
| TAGCTGCTCCATTAAGGCGTGATGGACTATGGAGAG | 174 a.u. |
| TGCGCAACAACTTGTATCGTGGGTGTATGTCTAGAA | 72.1 a.u. |
| AGATGATTAAGACATCTCGTGGAGGAATCATCATCT | 98.7 a.u. |
| CTTCTGTAAATTTGCTGCGTGGGTGGACGCGCCCCG | 80.2 a.u. |
| CATACCCAACCTTGTCAGGTGGGTGAAGATATTTGT | 194 a.u. |
| GATTGGGATCCTTGTCATGATGATGCCATAGCCATT | 67 a.u. |
| TCTTAAAACGAGGTTCACGTGTAACCTTGGTTGATG | 1180 a.u. |
| CGTCCTAGTGATTTTCACGTGTTTTCCATGAGGAAG | 1100 a.u. |
| CCGAAAAGGGCCCATCACGGCACATCTGAAGAAAAG | 67.5 a.u. |
| AAATTACTAAGTTGTCGAGTGGGTGACGCCGTATGA | 76.5 a.u. |
| CTGAAAAGATTTCGGCACATGGTCTTGGGACCAGAG | 180 a.u. |
| TGGTGCACTATCCATTTCGTGCTTTTTGGTTATTGT | 74 a.u. |

Set 5 — method: protein binding microarray; form: double-stranded DNA, one strand shown; medium: in vitro; concentration: not given; baseline: not given; direction: higher = stronger binding
Target: Histone acetyltransferase KAT6A, both winged helices, GST fusion (KAT6A, Homo sapiens, UniProt Q92794, residues 1-181)
Notes: 8-mer, flanks averaged, mean of 2 arrays, mostly near background
Target sequence (chain): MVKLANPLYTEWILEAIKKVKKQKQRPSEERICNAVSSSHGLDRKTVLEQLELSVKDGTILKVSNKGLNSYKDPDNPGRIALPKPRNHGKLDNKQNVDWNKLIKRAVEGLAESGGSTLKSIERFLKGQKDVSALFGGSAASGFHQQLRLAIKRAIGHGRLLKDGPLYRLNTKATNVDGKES
| Oligonucleotide | E-score |
| --- | --- |
| CCGATGCG | 0.254 |
| ATCGCTTC | 0.0409 |
| ATCGGGGG | 0.0117 |
| CGAAGAGA | -0.0448 |
| AGGGATTG | -0.116 |
| ATGGCGGC | 0.243 |
| AGCCTCCC | -0.104 |
| ATTTTGTG | -0.0826 |
| CATGGGGC | -0.1 |
| ATTTGTGG | -0.0681 |
| AAGGACGC | 0.0482 |
| AACACGCC | 0.231 |
| ATCGAACG | 0.113 |
| AGCGCTAT | 0.323 |
| AAACAGTG | -0.0758 |
| ATGCTACC | -0.0497 |
| ACGCTTAC | 0.14 |

Other studies, line by line — form: peptide; direction: direction not given
| Molecule | target | assay | test system | setting | quantity | value |
| --- | --- | --- | --- | --- | --- | --- |
| SNARRSLNFGGST | human cyclin D2 | cyclin docking binding, deep mutational scanning | yeast cyclin D2-Cln2 system |  | Cln2-subtracted enrichment score | 0.332 |
| PPAKRRLELGESG | human cyclin B1 | peptide binding, yeast competitive growth sequencing | Saccharomyces cerevisiae, cyclin B1-Cln2 fusion | concentration not given, RxL motif peptides | binding enrichment score | 0.666 |
